{"data": "Measured values pooled from the literature", "note": "Several values in a cell are separate wells, animals, samples, runs or records. ± gives the spread as reported."}
{"Structure (SMILES)": "O=C([O-])c1cccc(CN(CCN(Cc2cn(Cc3ccccc3)nn2)Cc2cccc(C(=O)[O-])n2)Cc2cn(Cc3ccccc3)nn2)n1.[64Cu+2]", "test system": "healthy athymic nude mice, small intestine", "setting": "intravenous, 1 h", "tissue uptake": "14.3 %ID/g"}
{"Structure (SMILES)": "CC(C)[C@H](NC(=O)[C@@H]1CCCN1C(=O)[C@H](CCCNC(=N)N)NC(=O)[C@H](CS)NC(=O)[C@H](Cc1c[nH]c2ccccc12)NC(=O)[C@H](CCCNC(=N)N)NC(=O)[C@@H](Cc1ccccc1)NC(=O)[C@H](Cc1c[nH]cn1)NC(=O)[C@H](CCC(=O)O)NC(=O)[C@H](CS)NC(=O)[C@H](CS)NC(=O)CNC(=O)[C@@H]1CC(=O)N[C@@H](CCCNC(=N)N)C(=O)NCC(=O)N[C@@H](CC(=O)O)C(=O)N[C@H](Cc2ccc(O)cc2)C(=O)N1)C(N)=O [technetium-99m labelled]", "test system": "C57 mice B16/F1 melanoma female, kidneys", "setting": "iv, 0.037 MBq, 4 h", "tissue uptake": "14.8 ± 5.41 %ID/g"}
{"Structure (SMILES)": "CN1C(=O)[C@@H](Cc2ccc(O)c(I)c2)NC(=O)CNC(=O)[C@H](Cc2ccc3ccccc3c2)NC(=O)[C@H](CCCNC(=N)N)NC(=O)[C@H]1CCCNC(=O)c1ccc(CNC(=O)CN2CCN(CC(=O)O)CCN(CC(=O)O)CCN(CC(=O)O)CC2)cc1 [lutetium-177 labelled]", "assay": "item: 177Lu radioactivity", "test system": "female CB-17 SCID mice, Daudi xenograft, pancreas", "setting": "intravenous, 0.16 nmol per mouse, 96 h", "tissue uptake": "0.07 ± 0.01 %ID/g"}
{"Structure (SMILES)": "CCCC[C@H](NC(=O)CNC(=O)CNC(=O)CN1CCN(CC(=O)O)CCN(CC(=O)O)CCN(CC(=O)O)CC1)C(=O)N[C@H]1CC(=O)NCCCC[C@@H](C(N)=O)NC(=O)[C@H](Cc2c[nH]c3ccccc23)NC(=O)[C@H](CCCNC(=N)N)NC(=O)[C@@H](Cc2ccccc2)NC(=O)[C@H](Cc2c[nH]cn2)NC1=O [gallium-67 labelled]", "test system": "female C57 mice, B16/F1 melanoma, skin", "setting": "intravenous, 0.037 MBq, 24 h", "tissue uptake": "0.76 ± 0.21 %ID/g"}
{"Structure (SMILES)": "O=C([O-])CN1CCN(CC(=O)[O-])CCN(CC(=O)NCCc2ccc3c(c2)C2C=CCC2C(c2cc4c(cc2Br)OCO4)N3)CCN(CC(=O)[O-])CC1.[111In+3] (stereo not shown)", "test system": "mice with Hec50 tumour xenograft, mammary gland", "setting": "1 h", "tissue uptake": "0.72 ± 0.24 %ID/g"}
{"Structure (SMILES)": "O=C([O-])CN1CCN(CC(=O)[O-])CCN(CC(=O)[O-])CCN(CC(=O)[O-])CC1.[64Cu+2]", "test system": "healthy athymic nude mice, lung", "setting": "intravenous, 15 min", "tissue uptake": "2.61 %ID/g"}
{"Structure (SMILES)": "O=C(NCC1OC2CCC=CCCC2O1)c1ccc([18F])nc1 (stereo not shown)", "test system": "female BALB/c nude mice, liver", "setting": "intravenous, 60 min", "tissue uptake": "2.9 ± 0.4 %ID/g"}
{"Structure (SMILES)": "CCCC[C@H](NC(=O)CN1CCC(NC(=O)CN2CCN(CC(=O)O)CCN(CC(=O)O)CCN(CC(=O)O)CC2)CC1)C(=O)N[C@H]1CC(=O)NCCCC[C@@H](C(N)=O)NC(=O)[C@H](Cc2c[nH]c3ccccc23)NC(=O)[C@H](CCCNC(=N)N)NC(=O)[C@@H](Cc2ccccc2)NC(=O)[C@H](Cc2c[nH]cn2)NC1=O [gallium-68 labelled]", "test system": "male C57BL/6J mice, B16-F10 tumours, brain", "setting": "intravenous, 1 h, blocking study, with: 100 µg non-radioactive Ga-peptide", "tissue uptake": "0.1 %ID/g"}
{"Structure (SMILES)": "CCCC[C@@H]1NC(=O)[C@@H](NC(=O)[C@H](CCC(=O)O)NC(=O)CNC(=O)CN2CCN(CC(=O)O)CCN(CC(=O)O)CCN(CC(=O)O)CC2)CCCCNC(=O)C[C@@H](C(N)=O)NC(=O)[C@H](C(C)C)NC(=O)[C@@H]2CCCN2C(=O)[C@H](CCCNC(=N)N)NC(=O)CNC(=O)[C@H](Cc2c[nH]c3ccccc23)NC(=O)[C@H](CCCNC(=N)N)NC(=O)[C@@H](Cc2ccccc2)NC(=O)[C@H](Cc2c[nH]cn2)NC(=O)[C@H](CCC(=O)O)NC1=O [gallium-67 labelled]", "test system": "C57 mice with B16/F1 melanoma, brain", "setting": "intravenous, 24 h", "tissue uptake": "0.01 %ID/g"}
{"Structure (SMILES)": "CC(C)[C@H](NC(=O)[C@@H]1CCCN1C(=O)[C@H](CCCNC(=N)N)NC(=O)[C@H](CS)NC(=O)[C@H](Cc1c[nH]c2ccccc12)NC(=O)[C@H](CCCNC(=N)N)NC(=O)[C@@H](Cc1ccccc1)NC(=O)[C@H](Cc1c[nH]cn1)NC(=O)[C@H](CCC(=O)O)NC(=O)[C@H](CS)NC(=O)[C@H](CS)NC(=O)[C@@H]1CC(=O)N[C@@H](CCCNC(=N)N)C(=O)NCC(=O)N[C@@H](CC(=O)O)C(=O)N[C@H](Cc2ccc(O)cc2)C(=O)N1)C(N)=O [technetium-99m labelled]", "test system": "C57 mice B16/F1 melanoma female, pancreas", "setting": "iv, 2 h, with: NDP-MSH 10 µg co-injected", "tissue uptake": "0.19 ± 0.11 %ID/g"}
{"Structure (SMILES)": "N=C(N)NCCC[C@H](NC(=O)CON=C[C@H](F)[C@@H](O)[C@H](O)[C@H](O)CO)C(=O)NCC(=O)N[C@@H](CC(=O)O)C(=O)O [fluorine-18 labelled]", "test system": "nude mice U-87 MG tumour, kidney", "setting": "intravenous, 0.5 h", "tissue uptake": "1.95 ± 0.17 %ID/g"}
{"Structure (SMILES)": "CCCC[C@H](NC(=O)CNC(=O)CNC(=O)CN1CCN(CC(=O)O)CCN(CC(=O)O)CC1)C(=O)N[C@H]1CC(=O)NCCCC[C@@H](C(N)=O)NC(=O)[C@H](Cc2c[nH]c3ccccc23)NC(=O)[C@H](CCCNC(=N)N)NC(=O)[C@@H](Cc2ccccc2)NC(=O)[C@H](Cc2c[nH]cn2)NC1=O [gallium-67 labelled]", "test system": "female C57 mice, B16/F1 melanoma, tumor", "setting": "intravenous, 0.037 MBq, 0.5 h", "tissue uptake": "20.6 ± 1.97 %ID/g"}
{"Structure (SMILES)": "NC12CNCCNCC(NCc3ccc(CNC(=O)CCCC(=O)NCc4ccc(-c5nncnn5)cc4)cc3)(CNCCNC1)CNCCNC2.[64Cu+2]", "test system": "athymic nude mice SW1222 xenograft, tumor", "setting": "4 h post injection, 24 h accumulation interval, with: huA33-TCO pretargeting", "tissue uptake": "5.6 %ID/g and 5.56 %ID/g"}
{"note": "A few entries again:"}
{"Structure (SMILES)": "CCCC[C@H](NC(=O)CN1CCC(NC(=O)CN2CCN(CC(=O)O)CCN(CC(=O)O)CCN(CC(=O)O)CC2)CC1)C(=O)N[C@H]1CC(=O)NCCCC[C@@H](C(N)=O)NC(=O)[C@H](Cc2c[nH]c3ccccc23)NC(=O)[C@H](CCCNC(=N)N)NC(=O)[C@@H](Cc2ccccc2)NC(=O)[C@H](Cc2c[nH]cn2)NC1=O [gallium-68 labelled]", "test system": "male C57BL/6J mice, B16-F10 tumours, brain", "setting": "intravenous, 1 h, blocking study, with: 100 µg non-radioactive Ga-peptide", "tissue uptake": "0.1 %ID/g"}
{"Structure (SMILES)": "CCCC[C@@H]1NC(=O)[C@@H](NC(=O)[C@H](CCC(=O)O)NC(=O)CNC(=O)CN2CCN(CC(=O)O)CCN(CC(=O)O)CCN(CC(=O)O)CC2)CCCCNC(=O)C[C@@H](C(N)=O)NC(=O)[C@H](C(C)C)NC(=O)[C@@H]2CCCN2C(=O)[C@H](CCCNC(=N)N)NC(=O)CNC(=O)[C@H](Cc2c[nH]c3ccccc23)NC(=O)[C@H](CCCNC(=N)N)NC(=O)[C@@H](Cc2ccccc2)NC(=O)[C@H](Cc2c[nH]cn2)NC(=O)[C@H](CCC(=O)O)NC1=O [gallium-67 labelled]", "test system": "C57 mice with B16/F1 melanoma, brain", "setting": "intravenous, 24 h", "tissue uptake": "0.01 %ID/g"}
